Results of several laboratories.
Protocols differ between the studies behind these lines. “And” joins repeats or separate records; there may be more than shown. ± marks the error that the study gave.
Chain of UniProt Q9UNQ0 (whole entry, looked up): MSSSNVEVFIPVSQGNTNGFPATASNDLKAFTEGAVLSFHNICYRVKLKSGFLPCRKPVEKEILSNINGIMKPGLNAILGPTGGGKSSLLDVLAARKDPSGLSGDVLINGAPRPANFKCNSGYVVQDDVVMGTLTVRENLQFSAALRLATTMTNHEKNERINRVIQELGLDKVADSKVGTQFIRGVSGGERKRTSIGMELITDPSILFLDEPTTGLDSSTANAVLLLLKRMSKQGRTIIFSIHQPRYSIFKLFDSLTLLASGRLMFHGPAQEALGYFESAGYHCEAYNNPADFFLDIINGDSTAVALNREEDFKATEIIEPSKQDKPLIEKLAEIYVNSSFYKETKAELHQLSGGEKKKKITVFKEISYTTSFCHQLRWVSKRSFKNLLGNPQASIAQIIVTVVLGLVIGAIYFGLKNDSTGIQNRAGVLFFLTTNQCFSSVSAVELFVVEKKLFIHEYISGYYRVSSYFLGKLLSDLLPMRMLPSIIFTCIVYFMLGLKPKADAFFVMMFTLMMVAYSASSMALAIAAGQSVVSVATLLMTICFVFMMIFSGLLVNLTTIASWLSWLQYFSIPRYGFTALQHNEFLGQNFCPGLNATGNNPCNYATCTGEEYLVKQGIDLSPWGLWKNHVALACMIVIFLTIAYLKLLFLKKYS

Compound = O=C1NC2(CC2)COc2ncc(F)cc2[C@H]2COCCN2c2ccn3ncc1c3n2; system = Sprague-Dawley rat, male, blood; setting = oral, 10 mg/kg/day, 4 weeks, end of recovery, subacute toxicity; quantity = lymphocyte percentage; result = 84.8 ± 2.7%
Compound = CC(C)N1CN(C2c3ccccc3CCc3ccccc32)n2cc(C(=O)O)c(=O)c(O)c2C1=O; system = dog cells; quantity = CC50; result = 3.5 µM
Compound = Cc1nc2cccc(OCC(C)(C)C(=O)NC(C)C)c2c(N)c1C(=O)[O-].[Na+]; target or system = Salmonella typhimurium; assay = Ames plate incorporation; system = TA1537; setting = 0.13 mg/plate, added: with rat liver S9; quantity = revertant colonies; result = 16 ± 4 colonies/plate
Compound = Cc1ccc(OC[C@@H]2CCN2C)cc1C(=O)N[C@H](C)c1cc(-c2cnn(C)c2)nc2ccccc12; target or system = African green monkey cells; setting = 7.812 µM; quantity = viability; result = 98.6%
Compound = COc1cc2c(cc1NC(=O)c1cncn1C)C[C@H]1[C@H]3CCCC[C@@]23CCN1C; system = C57BL/6 mice, plasma; setting = oral, 50 µg/g, 60 min; quantity = plasma concentration; result = 9810 ng/mL and 13400 ng/mL and 9530 ng/mL and 11200 ng/mL
Compound = Cc1ccc(OC2CN(C)C2)cc1C(=O)N[C@H](C)c1cc(-c2cnn(C)c2)nc2ccccc12; target or system = Vero E6; setting = 7.812 µM; quantity = viability; result = 100% and 93.2%
Compound = CN1CC[C@]23c4c5ccc(O)c4O[C@H]2[C@H](O)CC[C@@]3(O)[C@H]1C5; system = octanol/buffer; setting = 1 h, pH 7.4; quantity = logD; result = -1.07
Compound = Cc1ccc(N2CCN(C)CC2)cc1C(=O)N[C@H](C)c1cc(-c2cnn(C)c2)nc2ccccc12; target or system = African green monkey cells; setting = 7.812 µM; quantity = viability; result = 95.6%
Compound = O=C1CC[C@@]2(O)[C@H]3Cc4ccc(O)c5c4[C@@]2(CCN3CCc2ccccc2)[C@H]1O5; system = octanol/buffer; setting = 1 h, pH 7.4; quantity = logD; result = 0.78
Compound = CC[C@H](C)[C@H](NC(=O)[C@H](CC(=O)O)NC(=O)[C@@H](NC(=O)[C@@H]1CCCN1C(=O)[C@@H](N)CCCNC(=N)N)[C@@H](C)O)C(=O)N[C@@H](CCCCN)C(=O)N[C@H]1CSSC[C@@H]2NC(=O)[C@H](CCCNC(=N)N)NC(=O)CNC(=O)[C@H](CC(N)=O)NC(=O)[C@H]([C@@H](C)O)NC(=O)[C@H](CCCCN)NC(=O)CNC(=O)[C@H](Cc3ccccc3)NC(=O)[C@H](CCCNC(=N)N)NC(=O)[C@H](CO)NC(=O)[C@H](CCCCNC(=O)OCc3cc(OC)c(OC)cc3[N+](=O)[O-])NC(=O)[C@@H]3CSSC[C@@H](C(=O)N[C@@H](Cc4ccccc4)C(=O)O)NC(=O)[C@H](CC(=O)O)NC(=O)[C@H](CSSC[C@H](NC(=O)[C@H](CCC(N)=O)NC(=O)[C@H](Cc4ccc(O)cc4)NC(=O)[C@H](CO)NC(=O)[C@H](CCC(=O)O)NC(=O)[C@H](CO)NC1=O)C(=O)N[C@@H](Cc1ccccc1)C(=O)N1CCC[C@H]1C(=O)N[C@@H](C(C)C)C(=O)N3)NC(=O)[C@H](Cc1ccccc1)NC(=O)CNC(=O)[C@H](CC(N)=O)NC(=O)[C@H](C(C)C)NC2=O; target or system = human iPS-derived cardiomyocytes; setting = 200 nM, after illumination 365 nm; quantity = cells with EADs; result = 47%
Compound = Oc1ccc2c3c1OC1C(O)C=CC4C(C2)N(CC2CCC2)CCC341 (stereo not drawn); system = octanol/buffer; setting = 1 h, pH 7.4; quantity = logD; result = 1.32
Compound = CC(=O)NCCCC[C@@H]1NC(=O)[C@H](Cc2c[nH]c3c(C)cccc23)NC(=O)[C@H]([C@@H](C)O)NC(=O)[C@H](CC(N)=O)NC(=O)[C@@H](NC(C)=O)C(C)(C)SSC(C)(C)[C@@H](C(=O)N[C@@H](Cc2ccc(OCCN)cc2)C(=O)N[C@@H](Cc2ccc3ccccc3c2)C(=O)NC2(C(=O)N[C@@H](CCC(=O)O)C(=O)N[C@@H](CC(N)=O)C(=O)N[C@@H](Cc3cccnc3)C(=O)N(C)CC(N)=O)CCOCC2)NC1=O; target or system = Albumin (ALB, Homo sapiens, UniProt P02768); assay = equilibrium dialysis; system = purified human albumin; setting = 1 µM; quantity = unbound fraction; result = 64.1 ± 2.1 % unbound
Compound = Cc1cc(-c2ccc3ccccc3c2)nnc1NCCN1CCN(C)CC1; target or system = Broad substrate specificity ATP-binding cassette transporter ABCG2 (ABCG2, Homo sapiens, UniProt Q9UNQ0); assay = transporter uptake, inhibitor; setting = 10 µM; quantity = inhibition; result = 0%
Compound = CCn1ccc(-c2cc(C(C)NC(=O)c3cc(N4CC5CC4CN5C)ccc3C)c3ccccc3n2)n1 (stereo not drawn); target or system = Vero E6; setting = 250 µM; quantity = viability; result = 1.34% and 2.11% and 0.96%
Compound = C[C@@H](N1CN([C@H]2c3ccccc3CSc3ccccc32)n2cc(C(=O)O)c(=O)c(O)c2C1=O)C(F)(F)F; system = bovine cells; quantity = CC50; result = > 10 µM
Compound = NC[C@]1(CC(=O)O)CC[C@H]([18F])CC1; assay = PET, one-tissue model; system = rhesus monkey, occipital gyrus; setting = intravenous; quantity = K1; result = 0.0059 mL/min/cm3
Compound = Cc1cc(-c2cc([C@@H](C)NC(=O)c3cc(OCCN(C)C)ccc3C)c3ccccc3n2)n(C)n1; target or system = Vero E6; setting = 31.25 µM; quantity = viability; result = 87.8% and 92.4%
Compound = COc1ccc2c3c1O[C@H]1[C@H](O)C=C[C@@]4(O)[C@@H](C2)N(C)CC[C@]314; assay = pH-potentiometric titration; scale = baseline: O-methyl derivative; quantity = Δlog K, 14-hydroxylation effect; result = 0.76 log units
Compound = Cc1ccc(N(C)CCN2CCOCC2)cc1C(=O)N[C@H](C)c1cc(-c2cnn(C)c2)nc2ccccc12; target or system = Vero E6; setting = 7.812 µM; quantity = viability; result = 91.9% and 90.4% and 92.5%
Compound = O=C1CC[C@@]2(O)[C@H]3Cc4ccc(O)c5c4[C@@]2(CCN3CC2CCC2)[C@H]1O5; assay = PAMPA-BBB; system = porcine brain lipid; setting = 500 µM, 4 h, pH 7.4, 1% DMSO; quantity = Papp; result = 33 ×10⁻⁶ cm/s
Compound = Cc1ccc(OC[C@H]2CCCN2C)cc1C(=O)N[C@H](C)c1cc(-c2cnn(C)c2)nc2ccccc12; target or system = Vero E6; setting = 125 µM; quantity = viability; result = 4.42% and 1.26% and 0.158%
Compound = CN(C)c1ccc(-c2nc3ccccc3n2CCCOc2ccccc2)cc1; target or system = HEp-2; assay = cell growth or viability, ATP luminescence; setting = 72 h; quantity = IC50; result = > 7.22 µM
Compound = Cc1ccc(OCCN(C)C)cc1C(=O)N[C@H](C)c1cc(-c2cnn(C3CNC3)c2)nc2ccccc12; target or system = Vero E6; setting = 250 µM; quantity = viability; result = 97.3% and 99.6%
Compound = O=C(O)CCCOc1ccc(O)cc1-c1cc(-c2ccccc2C(F)(F)F)n(-c2ccccc2)n1; target or system = Escherichia coli; assay = Ames test; system = WP2 uvrA; setting = concentration not given, with metabolic activation; quantity = growth inhibitory concentration; result = ≥ 625 µg/plate

A few entries again:
Compound = Oc1ccc2c3c1OC1C(O)C=CC4C(C2)N(CC2CCC2)CCC341 (stereo not drawn); system = octanol/buffer; setting = 1 h, pH 7.4; quantity = logD; result = 1.32
Compound = COc1cc2c(cc1NC(=O)c1cncn1C)C[C@H]1[C@H]3CCCC[C@@]23CCN1C; system = C57BL/6 mice, plasma; setting = oral, 50 µg/g, 60 min; quantity = plasma concentration; result = 9810 ng/mL and 13400 ng/mL and 9530 ng/mL and 11200 ng/mL
